Published values pooled from the literature.
Each numbered part is a random draw from the data of one study; scales do not carry over between parts. Positions count from the first letter of the parent shown.

Series 1 — target: CCNA2, cyclin fold, Cln2 fusion (human); method: yeast growth competition, sequencing; medium: yeast; setting: strong parent motif; reference: not given; reading: higher = stronger binding; measurement: normalised enrichment score
Parent: DOT1L docking peptide (human); SEAKRRIVFTITT
SEAKRAIVFTITT [R6A]: 0.56
SEAKRRIVFTIAT [T12A]: 2.8
AEAKRRIVFTITT [S1A]: 2.06
SEAKRRIVFTITA [T13A]: 2.42
SEAKRRIAFTITT [V8A]: 1.23
SEAKRRIVATITT [F9A]: 0.63

Series 2 — method: RNA Bind-n-Seq; form: RNA; medium: in vitro; tested at: 365 nM; reference: no-protein control; reading: higher = stronger binding; measurement: RBNS enrichment (R)
Target: RNA binding protein fox-1 homolog 2, RRM domain, GST-SBP tag (RBFOX2, Homo sapiens, UniProt O43251-10, residues 100-194)
Setting: natural RNA segment, single round, ends assumed
Shared flanks, not repeated: GGGAGUUCUACAGUCCGACGAUC … UGGAAUUCUCGGGUGCCAA
AAGAGAGACGUCAGAAGAUGUUAGAAUAGGUCAAAGCCAAGGCUCUGGUGGGCUGAGGGAAGGUUUGUAGCUGCGUUUAGUGGUAUACAUCUUUAGUCCCAGCAUAGGCA: 0.544
UGUGCAGACCUCGGGGUUGAGAACGGGGUGAAGAUGAAUGUCCUUAGUGUUGGUGCAGCACCAGCCUGGGCUCUGGGCUCCUCACCGAGACUCAGAGGCCACACUGAUUU: 0.469
CAGCAACAGAACACUUGACCUUAAAAGUCUCUUCUGGUCUUUGGAUUAGAAAAGGCUUAUGUUAGCAUAGCUUAAGAGCAACCUCAGAGAUUUGAGCCCUACUAAGUGAC: 0.363
CCAUGUUUAGGAAACACACUGUACCCUGCUCCCAGCAUCACAAGGCACUUGUCUACAAGUGUGUCCCAACACAGUCCUGGGCCACUUUCCCCACCCUGGGGAGCACAUAA: 1.33
CAUGCUCUUUGCUUCUGUCUAUGUGGAAAUCUCCGUUUGCAGCCAAAAUCUGGGGGCUGCCACUGUACUUAACAUCUUCAUUUGAAGCCUUUCAGAUUUCCAUAAAGCCA: 0.441
CCAGUGGGCUGUGUUGACUGCUGCUCCCCACCCCUACCGAUGGUCCCAGGAAGCAGGGAGAGUUGGGGAAGGCAAGAUUGGAAAGACAGGAAGACCAAGGCCUCGGCAGA: 0.385
UAUUAUUAAAUGUUUAAAGUAAGGGAAAAGUCUGGGCUGCCUUCCUUAAUAUUGCAUCUCACUCCCACCCUUAAAACCACAGAUUGCAAAGCAUAGCAUUUUAGCAUCAA: 4.92
AGUCCUGGUUCCCUUGCCCGCGUGGGACCCCAAUAGAACUCAGCCCUUCCAUGCCAGCCCUUCCUGCUGCCUCCCUCCUGUCUGGCUCCUGGGGCCCAUGCUUAGAGCCC: 1.04

Series 3 — method: EMSA with sequencing; form: double-stranded DNA, one strand shown; medium: in vitro; tested at: 10 and 20 nM; reference: negative control set to 0; reading: higher = stronger binding; measurement: normalised bound fraction
Target: Hepatocyte nuclear factor 3-alpha (Foxa1, Mus musculus, UniProt P35582, residues 1-468, full length assumed)
Sequence of UniProt P35582 (whole entry, looked up): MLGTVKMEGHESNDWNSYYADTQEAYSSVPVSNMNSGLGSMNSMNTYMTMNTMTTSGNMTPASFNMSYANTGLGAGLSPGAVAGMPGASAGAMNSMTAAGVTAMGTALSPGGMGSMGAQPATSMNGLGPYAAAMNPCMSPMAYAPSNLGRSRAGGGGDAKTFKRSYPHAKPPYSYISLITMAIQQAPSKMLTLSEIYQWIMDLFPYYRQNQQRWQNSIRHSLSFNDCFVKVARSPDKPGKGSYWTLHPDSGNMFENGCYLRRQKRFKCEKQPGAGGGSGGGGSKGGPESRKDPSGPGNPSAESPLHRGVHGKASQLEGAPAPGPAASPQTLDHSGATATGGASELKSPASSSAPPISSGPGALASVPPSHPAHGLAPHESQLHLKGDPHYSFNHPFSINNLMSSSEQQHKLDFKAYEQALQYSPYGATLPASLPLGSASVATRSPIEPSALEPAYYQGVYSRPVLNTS
Setting: whole designed probe, mean of two concentrations, ends assumed
Shared flanks, not repeated: GTGAGCGGTGCCCATTGATGGGGAAC … TTTCACTGGGATCGTGGGGAC
AAATTCTGCAATTACATCACCTCATCTGCACCTGATGAATAAAAATAAATTATTTCAAAGTTTTAAAAAGTGCAACAATGATTTGCAAGACAGAGTAAACATACAGTAAAGGTTTTAATTCCTGAGACTTAAGTTGGATAGGTCTAGATTTTCATCAAGGAAAACAAAAGTATGATGTTAAATTCAAATTCTA: 0.247 ratio
CCACACTGGACAATACTGCATTGTACACCTAAAATTCCATTAAGAGGGTAGATCTCATGTAAAGTATTTACAACACAAGAAAATTTTTTAAAGTGTTTACATATTTAATAAATACTTTTTTCTATTTCTTAGCATACAGCACCAATGTAAATAAATATTAATTATAGCATCCACAGTTAAATTTCTCAATATT: 0.48 ratio
CCTAATTAATGCTTCTCACACAGCCTTACAAAATATTAGTCACTTAATTATTAACCACATTCATTGGGCTGCACTAGTTGAAAAAGATGTCTTGTTTACTTAGTCAAAGCGCTGTCTCTGTGCAATGGCATTGATGGTGAAATTGATCAGAGTCTACGTTTGAATGAGAGAAGCTGAGGGAGACATTTCAGAA: 0.493 ratio
GGTGGGATGGCTGCCCGGTAGAGACCGCCACCCAGACTCCCAGTTGCAGCTTCCTGCTGGGCCACATGGATGTTGTTAGGTTAGTGTTTTAGAGTCAACAAGGCCTAAACAGATCTATCATTTCCATTTCTCTAATTAGTTCCCTAATTTTATTACTGATATCATTATACTTCCTCTTACTCTGGTTCAAAAG: 0.0505 ratio
TTCCTTCTGCAGCTTTCCTCCCCAAACTCCACTGGTGCTCAAGATGACTCATCTGTCATTTTCACTTCCTTTCTGGCAGAGTAGCTGAGCTGAGCAATCTACAGAGCAGGTGGACAATAGTCTGGCCTCTGCATGAAGCCACCAGTTCACAGGAAATACAGGGGGCAGAGGAACATGTTAAGTGGCACCTCAG: -0.0797 ratio

Series 4 — method: protein binding microarray; form: double-stranded DNA, one strand shown; medium: in vitro; tested at: not given; reference: not given; reading: higher = stronger binding; measurement: E-score
Target: Histone acetyltransferase KAT6A, winged helix 1, GST fusion (KAT6A, Homo sapiens, UniProt Q92794, residues 1-85)
Setting: 8-mer, flanks averaged, mean of 2 arrays, mostly near background
Construct (chain): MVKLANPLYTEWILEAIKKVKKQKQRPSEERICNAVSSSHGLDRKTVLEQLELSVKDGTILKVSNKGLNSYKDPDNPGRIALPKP
CCCTTTGC: -0.0557
GTAGTGGA: -0.0881
CTACATTC: -0.11
AGCACTGC: 0.107
GACTAAAC: -0.0504
ACCTAGCC: 0.064
GATAAATC: -0.0326
CTGTTGCA: -0.0285
CCCTATCG: -0.0708
CTGGCGCC: 0.143
GATAATGA: -0.16
CCTAATCG: -0.104
CGAGCATA: -0.113
ATCACGTA: -0.0596
TCCATGAA: -0.176
ATGCCCCC: -0.0222

Repeated from above (series 4):
GATAATGA: -0.16
CCTAATCG: -0.104
CGAGCATA: -0.113
ATCACGTA: -0.0596
TCCATGAA: -0.176
ATGCCCCC: -0.0222
